Measured values of several laboratories.
Lines come from different studies, so protocols differ. ± marks the error that the study gave.
Chain of UniProt P02769 (whole entry, unmodified, looked up): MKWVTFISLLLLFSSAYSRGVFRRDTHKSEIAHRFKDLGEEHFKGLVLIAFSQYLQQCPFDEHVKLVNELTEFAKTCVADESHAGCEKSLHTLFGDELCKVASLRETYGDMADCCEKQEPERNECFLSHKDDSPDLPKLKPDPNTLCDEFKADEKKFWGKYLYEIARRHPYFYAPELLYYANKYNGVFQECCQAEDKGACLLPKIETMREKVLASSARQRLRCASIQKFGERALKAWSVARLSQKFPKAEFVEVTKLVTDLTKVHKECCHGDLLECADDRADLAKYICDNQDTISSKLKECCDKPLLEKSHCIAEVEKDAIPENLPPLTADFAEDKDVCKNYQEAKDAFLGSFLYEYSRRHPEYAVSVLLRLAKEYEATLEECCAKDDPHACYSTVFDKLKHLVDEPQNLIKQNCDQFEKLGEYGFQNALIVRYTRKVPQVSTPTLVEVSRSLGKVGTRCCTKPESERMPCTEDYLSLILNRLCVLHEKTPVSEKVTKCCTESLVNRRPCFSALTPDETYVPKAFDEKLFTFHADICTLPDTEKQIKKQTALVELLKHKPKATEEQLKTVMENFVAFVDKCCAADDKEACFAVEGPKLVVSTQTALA
Chain of UniProt Q9UPE1 (whole entry, looked up): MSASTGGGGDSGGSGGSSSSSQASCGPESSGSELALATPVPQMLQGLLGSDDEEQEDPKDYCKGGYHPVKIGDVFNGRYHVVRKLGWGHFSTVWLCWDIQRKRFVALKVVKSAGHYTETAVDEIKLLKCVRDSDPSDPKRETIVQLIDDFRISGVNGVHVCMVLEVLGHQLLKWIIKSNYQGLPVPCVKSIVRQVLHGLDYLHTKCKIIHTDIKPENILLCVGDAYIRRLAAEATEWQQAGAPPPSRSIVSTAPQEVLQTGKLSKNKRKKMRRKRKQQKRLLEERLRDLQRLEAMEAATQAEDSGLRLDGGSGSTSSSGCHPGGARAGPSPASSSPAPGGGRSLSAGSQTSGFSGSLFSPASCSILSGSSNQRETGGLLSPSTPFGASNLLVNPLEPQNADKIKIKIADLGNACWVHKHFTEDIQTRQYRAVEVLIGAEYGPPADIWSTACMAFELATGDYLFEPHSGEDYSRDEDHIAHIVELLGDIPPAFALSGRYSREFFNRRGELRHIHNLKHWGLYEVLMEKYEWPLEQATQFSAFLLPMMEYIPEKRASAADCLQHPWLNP
Chain of UniProt P47775 (whole entry, looked up): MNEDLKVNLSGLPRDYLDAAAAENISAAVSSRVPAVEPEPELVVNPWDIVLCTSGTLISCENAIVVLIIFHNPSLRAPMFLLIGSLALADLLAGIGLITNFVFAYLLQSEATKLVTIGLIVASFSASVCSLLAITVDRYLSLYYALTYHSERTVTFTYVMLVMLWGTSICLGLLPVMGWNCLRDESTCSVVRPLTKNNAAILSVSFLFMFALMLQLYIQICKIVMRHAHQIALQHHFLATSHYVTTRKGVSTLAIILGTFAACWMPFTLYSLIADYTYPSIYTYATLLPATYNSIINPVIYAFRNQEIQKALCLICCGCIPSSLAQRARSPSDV
Chain of UniProt P51787 (whole entry, looked up): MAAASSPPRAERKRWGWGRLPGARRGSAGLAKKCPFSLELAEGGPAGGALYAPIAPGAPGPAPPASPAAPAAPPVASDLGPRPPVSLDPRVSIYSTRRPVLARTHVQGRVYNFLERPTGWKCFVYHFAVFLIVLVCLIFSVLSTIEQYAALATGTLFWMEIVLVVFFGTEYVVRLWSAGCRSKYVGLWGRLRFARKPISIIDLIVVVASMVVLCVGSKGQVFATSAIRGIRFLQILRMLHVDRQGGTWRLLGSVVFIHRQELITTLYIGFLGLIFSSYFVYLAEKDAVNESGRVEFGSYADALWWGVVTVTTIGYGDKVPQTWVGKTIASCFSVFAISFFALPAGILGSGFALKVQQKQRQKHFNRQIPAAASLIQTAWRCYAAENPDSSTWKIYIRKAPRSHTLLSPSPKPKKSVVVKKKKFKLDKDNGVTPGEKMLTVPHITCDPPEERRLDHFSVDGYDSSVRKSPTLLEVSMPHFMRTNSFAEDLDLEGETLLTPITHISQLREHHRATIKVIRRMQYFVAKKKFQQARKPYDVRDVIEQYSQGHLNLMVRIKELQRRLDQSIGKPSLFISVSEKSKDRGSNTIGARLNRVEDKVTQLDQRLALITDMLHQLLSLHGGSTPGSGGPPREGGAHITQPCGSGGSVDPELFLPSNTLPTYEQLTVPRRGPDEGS
Chain of UniProt P00441 (whole entry, unmodified, looked up): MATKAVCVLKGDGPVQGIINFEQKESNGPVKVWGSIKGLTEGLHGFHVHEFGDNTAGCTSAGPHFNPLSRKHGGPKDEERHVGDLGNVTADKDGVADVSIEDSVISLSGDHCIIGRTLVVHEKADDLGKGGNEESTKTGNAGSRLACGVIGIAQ

| SMILES | target or system | test | system | setting | scale | measurement | result |
| --- | --- | --- | --- | --- | --- | --- | --- |
| CCN1CCC[C@H]1CNC(=O)c1c(O)c(Cl)cc(Cl)c1OC | G-protein coupled receptor 12 (GPR12, Homo sapiens, UniProt P47775) | β-arrestin recruitment, TANGO luminescence, refers to: GPR12 |  | concentration not given | baseline: basal luminescence | log2 fold change | -0.389 |
| O=C(c1ccc(C2CCCCC2)cc1)N1CC(O)C1 |  | liver microsome stability | mouse liver microsomes | 1 µM |  | hepatic clearance | 82 mL/min/kg |
| CC(C)C[C@@H]1NC(=O)CNC(=O)[C@H](CC(C)C)NC(=O)[C@@H]2CCCN2C(=O)[C@H](CC(=O)O)NC(=O)[C@H](Cc2ccc(O)cc2)NC(=O)CNC(=O)[C@@H](Cc2ccc(O)cc2)NC(=O)CSC[C@@H](C(N)=O)NC(=O)[C@H](C)NC(=O)[C@H](Cc2ccccc2)NC(=O)[C@H](Cc2ccc(O)cc2)NC(=O)[C@H](CCCCN)NC1=O | Vacuolar protein sorting-associated protein 29 (VPS29, Homo sapiens, UniProt Q9UBQ0) | binding, ITC |  | 25 °C, protein alone |  | ΔG | -11.1 ± 0.21 kcal/mol |
| CC[C@H](C)[C@H](NC(=O)[C@H](Cc1ccccc1)NC(=O)[C@H](CCC(=O)O)NC(=O)[C@H](CCCNC(=N)N)NC(=O)[C@H](C)NC(=O)[C@H](C)NC(=O)[C@H](CCC(N)=O)NC(=O)[C@H](CCC(=O)O)NC(=O)[C@H](CCC(=O)O)NC(=O)[C@H](CC(C)C)NC(=O)[C@H](Cc1ccc(O)cc1)NC(=O)[C@H](CO)NC(=O)[C@H](CO)NC(=O)[C@@H](NC(=O)[C@H](CC(=O)O)NC(=O)[C@H](CO)NC(=O)[C@@H](NC(=O)[C@H](Cc1ccccc1)NC(=O)[C@@H](NC(=O)CNC(=O)[C@H](CCC(=O)O)NC(=O)[C@H](C)NC(=O)CCc1cnc[nH]1)[C@@H](C)O)[C@@H](C)O)C(C)C)C(=O)N[C@@H](C)C(=O)N[C@@H](Cc1c[nH]c2ccccc12)C(=O)N[C@@H](CC(C)C)C(=O)N[C@H](C(=O)N[C@@H](CCCNC(=N)N)C(=O)NCC(=O)N[C@@H](CCCNC(=N)N)C(=O)N[C@@H](CCCCNC(=O)COCCOCCNC(=O)COCCOCCNC(=O)CC[C@H](NC(=O)CCCCCCCCCCCCCCCCC(=O)O)C(=O)O)C(=O)NCC(=O)NCC(=O)N[C@@H](CO)C(=O)N[C@@H](CCSC)C(=O)N[C@H](C(=O)N[C@@H](CCCCNc1c(NCCCCCN(O)C(=O)CCC(=O)NCCCCCN(O)C(=O)CCC(=O)NCCCCCN(O)C(C)=O)c(=O)c1=O)C(=O)O)C(C)C)C(C)C | GLP1R (Homo sapiens, UniProt P43220) | agonist, CRE luciferase reporter | BHK cells | Zr-loaded DFO conjugate, together with: 0% HSA | baseline: parent peptide | fold potency loss | 1.4 |
| C[C@@H]1CCN(C(=O)CCl)[C@@H](C(N)=O)C1 | human NEDD9 full length | LC-MS/MS peptide mapping |  | 50 µM, 4 h |  | cysteine occupancy | 14% |
| N#Cc1ccc(NC(=O)Nc2ccccc2)cc1 | SRPK3 (Homo sapiens, UniProt Q9UPE1) | kinase activity, Z'-LYTE |  |  |  | Hill slope | 1.09 |
| COc1cc(Nc2ncc3c(n2)-c2ccc(Cl)cc2C(c2c(F)cccc2OC)=NC3)ccc1C(=O)O | CLK2 | kinase activity |  | 1 µM |  | remaining activity | 71% |
| CN(Cc1cccnc1)C(=O)c1ccc(C2CCCCC2)cc1 |  | liver microsome stability | dog liver microsomes | 1 µM |  | hepatic clearance | 27 mL/min/kg |
| [O-][S+]1CCCCS1 (stereo not drawn) | SOD1 (Homo sapiens, UniProt P00441, G94A) | LC-MS | human whole blood | 100 µM, 1 h, 37 °C |  | SOD1 dimer fraction | 30.3% |
| NCC[C@H](O)C(=O)N[C@@H]1C[C@H](N)[C@@H](O[C@H]2O[C@H](CN)[C@@H](O)[C@H](O)[C@H]2O)[C@H](O)[C@H]1O[C@H]1O[C@H](CO)[C@@H](O)[C@H](N)[C@H]1O | Albumin (ALB, Bos taurus, UniProt P02769) | binding, tryptophan fluorescence quenching |  | pH 7.4, 283-310 K |  | ΔH° | -78.7 kcal/mol |
| C=CC(=O)N1C/C(=C\c2ccc([N+](=O)[O-])cc2)C(=O)/C(=C/c2ccc([N+](=O)[O-])cc2)C1 | NanoBiT HiBiT/LgBiT luciferase | inhibitor, HiBiT luminescence counterscreen | conditioned medium only | 5 µM, 24 h | baseline: vehicle | luminescence signal reduction | -5.82% |
| c1ccc(C(NCc2cccnc2)(c2ccccc2)c2ccccc2)cc1 | Potassium voltage-gated channel subfamily KQT member 1, with KCNE1 (KCNQ1, Homo sapiens, UniProt P51787) | IKs peak current, whole-cell patch clamp | tsA201 with KCNQ1-KCNE1 fusion |  |  | Hill coefficient | 0.91 |

For quick reference, copied from above:
| SMILES | target or system | test | system | setting | scale | measurement | result |
| --- | --- | --- | --- | --- | --- | --- | --- |
| N#Cc1ccc(NC(=O)Nc2ccccc2)cc1 | SRPK3 (Homo sapiens, UniProt Q9UPE1) | kinase activity, Z'-LYTE |  |  |  | Hill slope | 1.09 |
